# Measured values of several laboratories.
# Compare with care: the assays were run in different laboratories. ± marks the error that the study gave.
# AKR1B1: Aldo-keto reductase family 1 member B1 (AKR1B1, Homo sapiens, UniProt P15121)
# pyrD: Dihydroorotate dehydrogenase (quinone) (pyrD, Acinetobacter baumannii, UniProt B7GZW7)
# Sequence of UniProt B7GZW7 (whole entry, looked up): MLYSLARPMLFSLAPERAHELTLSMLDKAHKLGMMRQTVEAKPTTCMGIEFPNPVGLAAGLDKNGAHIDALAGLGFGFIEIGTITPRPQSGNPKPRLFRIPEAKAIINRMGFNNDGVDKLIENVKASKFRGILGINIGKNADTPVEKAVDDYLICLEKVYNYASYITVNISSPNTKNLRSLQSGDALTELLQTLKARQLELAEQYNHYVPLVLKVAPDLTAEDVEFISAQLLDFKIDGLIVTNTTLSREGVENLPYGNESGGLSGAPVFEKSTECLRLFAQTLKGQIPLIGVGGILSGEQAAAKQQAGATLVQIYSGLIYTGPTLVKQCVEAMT
# Kir3.1/Kir3.4: Kir3.1/Kir3.4 (Homo sapiens, UniProt P48544+P48549)
# Sequence of UniProt P48544 (whole entry, looked up): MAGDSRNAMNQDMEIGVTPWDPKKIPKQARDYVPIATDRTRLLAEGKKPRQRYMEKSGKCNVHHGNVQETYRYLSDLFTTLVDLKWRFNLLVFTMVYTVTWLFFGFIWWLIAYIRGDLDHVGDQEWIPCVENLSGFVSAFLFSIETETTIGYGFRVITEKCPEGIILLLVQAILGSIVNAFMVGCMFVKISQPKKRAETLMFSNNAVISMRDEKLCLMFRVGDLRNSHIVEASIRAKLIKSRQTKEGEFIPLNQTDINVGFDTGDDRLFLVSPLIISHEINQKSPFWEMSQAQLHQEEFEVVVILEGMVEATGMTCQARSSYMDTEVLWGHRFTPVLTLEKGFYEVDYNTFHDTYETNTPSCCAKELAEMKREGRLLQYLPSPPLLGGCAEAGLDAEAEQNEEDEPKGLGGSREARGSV
# Sequence of UniProt P48549 (whole entry, looked up): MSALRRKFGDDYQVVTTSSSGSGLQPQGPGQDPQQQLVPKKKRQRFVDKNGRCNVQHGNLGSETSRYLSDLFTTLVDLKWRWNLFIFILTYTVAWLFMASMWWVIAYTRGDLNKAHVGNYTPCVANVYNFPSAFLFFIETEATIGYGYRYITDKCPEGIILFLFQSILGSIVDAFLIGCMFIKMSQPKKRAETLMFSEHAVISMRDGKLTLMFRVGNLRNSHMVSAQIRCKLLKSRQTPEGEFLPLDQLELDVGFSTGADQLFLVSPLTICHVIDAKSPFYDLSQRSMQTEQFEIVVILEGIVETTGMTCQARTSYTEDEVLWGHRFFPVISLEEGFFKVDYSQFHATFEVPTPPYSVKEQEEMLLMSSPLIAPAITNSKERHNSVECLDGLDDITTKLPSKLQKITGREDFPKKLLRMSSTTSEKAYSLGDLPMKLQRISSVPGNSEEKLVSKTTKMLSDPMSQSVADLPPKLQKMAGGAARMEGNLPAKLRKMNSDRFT
# Sequence of UniProt Q12791 (whole entry, looked up): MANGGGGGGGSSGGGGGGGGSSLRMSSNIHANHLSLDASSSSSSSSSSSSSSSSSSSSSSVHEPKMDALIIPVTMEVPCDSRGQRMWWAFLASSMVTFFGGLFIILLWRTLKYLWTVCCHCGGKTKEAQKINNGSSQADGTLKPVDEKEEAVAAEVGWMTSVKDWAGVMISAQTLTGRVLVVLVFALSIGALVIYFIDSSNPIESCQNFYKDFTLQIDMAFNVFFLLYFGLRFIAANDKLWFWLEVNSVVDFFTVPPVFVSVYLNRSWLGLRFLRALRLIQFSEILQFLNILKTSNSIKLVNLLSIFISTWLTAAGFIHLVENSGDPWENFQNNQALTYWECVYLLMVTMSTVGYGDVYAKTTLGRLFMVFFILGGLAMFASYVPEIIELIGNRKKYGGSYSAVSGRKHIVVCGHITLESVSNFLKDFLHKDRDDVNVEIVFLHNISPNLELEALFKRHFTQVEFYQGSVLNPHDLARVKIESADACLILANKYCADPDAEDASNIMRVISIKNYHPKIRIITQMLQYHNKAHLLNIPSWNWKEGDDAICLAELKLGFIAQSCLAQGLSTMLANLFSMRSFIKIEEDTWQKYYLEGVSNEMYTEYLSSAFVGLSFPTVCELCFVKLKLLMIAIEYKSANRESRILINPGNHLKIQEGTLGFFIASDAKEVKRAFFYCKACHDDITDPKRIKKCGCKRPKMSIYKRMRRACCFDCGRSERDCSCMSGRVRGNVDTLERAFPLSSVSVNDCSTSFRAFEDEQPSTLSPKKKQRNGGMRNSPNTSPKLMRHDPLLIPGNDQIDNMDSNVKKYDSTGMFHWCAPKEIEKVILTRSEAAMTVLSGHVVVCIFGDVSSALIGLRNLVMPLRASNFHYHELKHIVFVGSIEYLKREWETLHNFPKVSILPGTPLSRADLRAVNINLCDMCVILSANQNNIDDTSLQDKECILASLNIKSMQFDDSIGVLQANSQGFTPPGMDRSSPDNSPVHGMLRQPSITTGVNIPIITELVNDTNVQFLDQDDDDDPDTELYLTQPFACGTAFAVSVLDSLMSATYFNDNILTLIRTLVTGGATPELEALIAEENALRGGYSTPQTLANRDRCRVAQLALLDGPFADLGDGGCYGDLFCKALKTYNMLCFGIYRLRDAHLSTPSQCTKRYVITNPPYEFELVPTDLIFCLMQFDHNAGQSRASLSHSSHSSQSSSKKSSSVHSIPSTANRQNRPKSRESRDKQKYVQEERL
# Sequence of UniProt Q92793 (whole entry, looked up): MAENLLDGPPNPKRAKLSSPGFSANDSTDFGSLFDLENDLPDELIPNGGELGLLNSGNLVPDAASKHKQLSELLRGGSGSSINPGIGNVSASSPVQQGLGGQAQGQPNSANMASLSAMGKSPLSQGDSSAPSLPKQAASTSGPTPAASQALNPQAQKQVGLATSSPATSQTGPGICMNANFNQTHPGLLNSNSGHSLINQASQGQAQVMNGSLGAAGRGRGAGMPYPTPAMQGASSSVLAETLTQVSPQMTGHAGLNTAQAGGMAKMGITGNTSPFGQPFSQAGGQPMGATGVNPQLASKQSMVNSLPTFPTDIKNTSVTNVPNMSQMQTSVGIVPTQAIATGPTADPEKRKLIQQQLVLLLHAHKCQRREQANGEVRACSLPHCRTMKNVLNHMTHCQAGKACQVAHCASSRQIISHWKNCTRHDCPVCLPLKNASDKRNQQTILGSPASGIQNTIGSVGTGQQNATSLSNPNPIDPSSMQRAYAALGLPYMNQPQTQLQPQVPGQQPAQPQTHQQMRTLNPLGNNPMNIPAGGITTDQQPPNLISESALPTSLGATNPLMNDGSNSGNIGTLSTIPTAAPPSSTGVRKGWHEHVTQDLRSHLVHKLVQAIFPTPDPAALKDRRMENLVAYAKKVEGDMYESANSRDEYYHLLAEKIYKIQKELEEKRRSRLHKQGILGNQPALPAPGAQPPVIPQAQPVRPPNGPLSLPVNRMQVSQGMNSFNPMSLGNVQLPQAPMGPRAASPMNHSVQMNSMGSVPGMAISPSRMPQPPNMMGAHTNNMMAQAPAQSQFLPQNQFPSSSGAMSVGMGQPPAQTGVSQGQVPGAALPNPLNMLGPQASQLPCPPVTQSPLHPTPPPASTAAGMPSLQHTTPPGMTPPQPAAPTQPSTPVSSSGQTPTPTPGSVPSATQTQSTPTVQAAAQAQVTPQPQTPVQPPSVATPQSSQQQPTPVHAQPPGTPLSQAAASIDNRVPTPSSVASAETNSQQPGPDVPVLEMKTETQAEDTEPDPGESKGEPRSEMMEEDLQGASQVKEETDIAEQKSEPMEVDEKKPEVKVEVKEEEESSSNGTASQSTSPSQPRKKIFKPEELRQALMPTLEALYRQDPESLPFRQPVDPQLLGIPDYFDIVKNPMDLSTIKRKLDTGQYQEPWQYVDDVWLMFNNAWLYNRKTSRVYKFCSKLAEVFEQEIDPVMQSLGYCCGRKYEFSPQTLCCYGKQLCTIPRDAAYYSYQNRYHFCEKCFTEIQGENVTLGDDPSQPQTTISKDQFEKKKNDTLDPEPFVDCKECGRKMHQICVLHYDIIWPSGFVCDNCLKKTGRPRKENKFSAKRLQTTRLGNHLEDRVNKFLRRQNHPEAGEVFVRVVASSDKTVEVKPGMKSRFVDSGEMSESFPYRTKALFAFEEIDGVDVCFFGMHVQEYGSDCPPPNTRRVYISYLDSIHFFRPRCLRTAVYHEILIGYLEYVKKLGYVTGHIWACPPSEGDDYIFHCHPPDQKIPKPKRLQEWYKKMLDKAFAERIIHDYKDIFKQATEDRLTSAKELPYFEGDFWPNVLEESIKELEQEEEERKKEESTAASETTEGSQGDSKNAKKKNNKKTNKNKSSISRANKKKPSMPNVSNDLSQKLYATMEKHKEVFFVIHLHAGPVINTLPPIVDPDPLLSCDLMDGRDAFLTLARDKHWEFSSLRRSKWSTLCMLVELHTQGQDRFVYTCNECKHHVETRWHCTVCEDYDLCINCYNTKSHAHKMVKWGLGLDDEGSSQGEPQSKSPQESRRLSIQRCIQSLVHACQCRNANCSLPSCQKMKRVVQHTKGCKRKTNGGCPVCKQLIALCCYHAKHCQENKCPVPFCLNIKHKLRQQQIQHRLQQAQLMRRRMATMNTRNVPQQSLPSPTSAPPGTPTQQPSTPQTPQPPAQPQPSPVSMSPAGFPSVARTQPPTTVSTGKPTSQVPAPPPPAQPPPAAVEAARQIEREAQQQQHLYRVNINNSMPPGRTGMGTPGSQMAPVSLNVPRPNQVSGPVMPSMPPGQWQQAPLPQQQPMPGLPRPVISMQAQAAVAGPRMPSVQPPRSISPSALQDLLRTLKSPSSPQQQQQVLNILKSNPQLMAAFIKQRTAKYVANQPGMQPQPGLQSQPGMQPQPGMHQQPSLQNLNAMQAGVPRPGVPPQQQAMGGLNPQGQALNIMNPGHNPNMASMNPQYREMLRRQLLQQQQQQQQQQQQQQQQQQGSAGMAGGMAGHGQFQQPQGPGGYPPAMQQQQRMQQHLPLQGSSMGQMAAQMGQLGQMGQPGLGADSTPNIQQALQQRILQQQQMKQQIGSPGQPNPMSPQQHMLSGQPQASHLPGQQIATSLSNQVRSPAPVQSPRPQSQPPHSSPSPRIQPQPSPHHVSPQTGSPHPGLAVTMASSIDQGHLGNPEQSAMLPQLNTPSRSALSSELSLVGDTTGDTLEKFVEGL
SMILES,tested on,assay,test system,setting,how to read,measurement,result
CC(C)CC(O)C(=O)O (centres unmarked),,"binding, MIDAS equilibrium dialysis LC-MS",A2AR-BRIL thermostabilized,concentration not given,relative to: no-protein control,log2 fold change,-0.556
Nc1ncnc2c1ncn2[C@@H]1O[C@H](COP(=O)(O)OP(=O)(O)OP(=O)(O)O)[C@@H](O)[C@H]1O,"CKMT1A (Homo sapiens, UniProt P12532, E265D)","substrate, ADP-Glo luminescence",,"pH 8.5, forward reaction, E227D mutant, added: second substrate in excess",,kcat,0.004 ± 0.002 s⁻¹
CCN(CC)c1ccc(C(=O)NCCc2c(C)[nH]c3ccccc23)cc1,"PTGIR (Homo sapiens, UniProt P43119)","IP accumulation, antagonist, Schild analysis, single concentration",C6 glioma cells overexpressing receptor,10 µM,,KB,< 10 mM
COc1cc(/C=C2\SC(=O)N(Cc3nc4ccccc4s3)C2=O)cc(OC)c1OC,AKR1B1,"enzyme activity, inhibitor",,,,log IC50,2.43 log nM
CCOC(=O)[C@@]12C[C@@H]1[C@@H](n1cnc3c(NCCCCCc4ccccc4)nc(C#Cc4ccc(Cl)s4)nc31)[C@H](O)[C@@H]2O,"SLC6A3 (Homo sapiens, UniProt Q01959)",inhibitor,HEK293,"concentration not given, added: [3H]dopamine 20 nM",,dopamine uptake,no effect
CCC1(O)CCCN(C(=O)c2ccc(-c3ccc(F)c(NC(=O)CCl)c3)cc2)C1 (centres unmarked),"DNA dC->dU-editing enzyme APOBEC-3B, C-terminal domain (Homo sapiens, UniProt Q9UH17)","covalent modifier, intact protein mass spectrometry, item: adduct +26487 Da",,"500 µM, 3 h, 20-fold molar excess",,protein adduct,10%
CSc1nc2nc(C)cc(Nc3ccc(C(F)(F)F)c(F)c3)n2n1,pyrD,"enzyme activity, inhibitor, colorimetric HTS, item: DCIP reduction",,3 µM,direction not given,robust Z-score,23.2
C[C@H](N)C(=O)Nc1ccc2ccccc2c1,rat aminopeptidase III,substrate,,MW 110 kDa,,kcat,5.17 s⁻¹
Cc1cc(NC2Cc3cc(F)c(F)cc3C2)n2nc(C(F)(F)F)nc2n1,pyrD,"enzyme activity, inhibitor, colorimetric HTS, item: DCIP reduction",,3 µM,direction not given,robust Z-score,20.3
Cn1cc(-c2ccc(-c3cncc(Cl)c3N3CCC4(CCNC4=O)CC3)cc2)cn1,COLO 205,"gene expression, microarray, item: POU2AF1 mRNA",,"concentration not given, 6 h",relative to: untreated cells,log2 fold change,-4.11
O=C(COP(=O)(O)O)[C@@H](O)[C@H](O)[C@H](O)COP(=O)(O)O,"26S proteasome non-ATPase regulatory subunit 6 (Homo sapiens, UniProt Q15008)","thermal proteome profiling, item: PSMD6",HepG2 cell lysate,"concentration not given, 57 over 37 °C, mean",relative to: compound over control,thermal stability ratio,0.553
Cc1cccc(N2CC(C(=O)O)CC2=O)c1 (centres unmarked),"Protein transport protein Sec31A (SEC31A, Homo sapiens, UniProt O94979)","binding, affinity selection mass spectrometry",,,relative to: other proteins in batch,log fold enrichment,-0.0223
CN(C)C(=O)C(CCN1CCC(O)(c2ccc(Cl)cc2)CC1)(c1ccccc1)c1ccccc1,"Calcium-activated potassium channel subunit alpha-1, with LRRC26 γ1 subunit (KCNMA1, Homo sapiens, UniProt Q12791)","ion current, inside-out patch, fit of G-V curve",BKα/γ1 channel,"3 µM, added: nominally 0 Ca2+",,V1/2,-1.85 mV
CC(=O)NCCCCN,,"binding, MIDAS equilibrium dialysis LC-MS",A2AR-BRIL thermostabilized,concentration not given,relative to: no-protein control,log2 fold change,-0.0619
O=C(O)CCn1sc2ccccc2c1=O,"Ubiquitin carboxyl-terminal hydrolase 16, ZnF-UBD domain (USP16, Homo sapiens, UniProt Q9Y5T5)",,,,,Kd,> 1000 µM
O=c1nc(SCc2cc(F)cc(C(F)(F)F)c2)nc(SCc2ccc3sccc3c2)[nH]1,"TOP2A (Homo sapiens, UniProt P11388)",decatenation,,"7.8 µM, replicate 1",,decatenated DNA,100%
CCCCCCCc1ccc(Nc2cc(C)nc3ncnn23)cc1,pyrD,"enzyme activity, inhibitor, colorimetric HTS, item: DCIP reduction",,3 µM,direction not given,robust Z-score,18.5
NC/C(=C\F)COc1cccc(Cn2c(=S)[nH]c(=O)c3[nH]cnc32)c1,"Amine oxidase [copper-containing] 3 (Rattus norvegicus, UniProt O08590)",,rat adipose tissue,0.037 µM,,inhibition,89.5%
O=C(COc1ccc(Cl)cc1Cl)Nc1cc(C2CC2)nn1CC(F)(F)F,Kir3.1/Kir3.4,"thallium flux, activator",HEK293,,relative to: standard compound,Emax,68%
NCCS(=O)(=O)O,"SLC6A6 (Homo sapiens, UniProt P31641, S402A)","binding, microscale thermophoresis",,"250 µM, room temperature, added: 50 nM labelled protein",higher = more binding,normalised MST signal,-0.0301
Nc1ccn([C@H]2C[C@H](O)[C@@H](COP(=O)(O)OP(=O)(O)OP(=O)(O)O)O2)c(=O)n1,"DNA polymerase beta (POLB, Homo sapiens, UniProt P06746)",substrate,,undamaged template,,kcat,0.000417 s⁻¹
CC[C@H](C)[C@H](NC(=O)[C@H](CCC(=O)O)NC(=O)[C@H](C)NC(=O)[C@@H](NC(=O)[C@H](Cc1c[nH]cn1)NC(=O)[C@H]1CCC[C@@H]1NC(=O)[C@H](CCC(=O)O)NC(=O)[C@H](C)NC(=O)[C@H]1CCC[C@@H]1NC(=O)[C@H](CC(C)C)NC(=O)[C@H](Cc1c[nH]cn1)NC(=O)[C@H](Cc1c[nH]cn1)NC(=O)[C@H]1CCC[C@@H]1NC(=O)[C@H](Cc1ccccc1)NC(=O)[C@H](Cc1ccccc1)NC(=O)[C@H](CCCNC(=N)N)NC(=O)[C@H](CCCNC(=N)N)NC(=O)[C@H](CCCNC(=N)N)NC(=O)[C@H]1CCC[C@@H]1NC(=O)[C@H](CC(=O)O)NC(=O)[C@H](CCC(N)=O)NC(=O)[C@@H](NC(=O)C[C@H](Cc1c[nH]c2ccccc12)NC(=O)[C@H](CCCCN)NC(=O)[C@@H](Cc1c[nH]c2ccccc12)NC(=O)[C@H](CC(C)C)NC(=O)[C@H](CC(=O)O)NC(=O)[C@H](Cc1c[nH]cn1)NC(=O)[C@H](CC(C)C)NC(=O)C[C@@H](N)CC(C)C)[C@@H](C)CC)[C@@H](C)O)C(N)=O,"PTH1R (Homo sapiens, UniProt Q03431, T410R)","inverse agonist, GloSensor cAMP",HEK293 expressing PTH1R,,,basal cAMP formation,decreased
Cn1nnc2ccc(NC(=O)c3cccc(C(=O)O)c3)cc21,"CREB-binding protein, bromodomain (CREBBP, Homo sapiens, UniProt Q92793)",binding,,,,ligand efficiency,0.3
CC(=O)O[C@H](CC(=O)[O-])C[N+](C)(C)C,"Carnitine O-acetyltransferase (CRAT, Columba livia, UniProt P52826)",stopped-flow global fit,,"pH 7.8, ambient, ordered bi-bi mechanism",,Ki,1870 µM
Cc1cc(NC(=O)C2CCc3ccccc3O2)n(C2CCS(=O)(=O)C2)n1 (centres unmarked),Kir3.1/Kir3.4,"thallium flux, activator",HEK293,,relative to: standard compound,Emax,21%
CCC(F)(F)c1nc2nc(C)cc(Nc3ccc(C(F)(F)F)cc3)n2n1,pyrD,"enzyme activity, inhibitor, colorimetric HTS, item: DCIP reduction",,3 µM,direction not given,robust Z-score,19
CCOC(=O)c1c(NC(=O)CNC(C)C)sc2c1CCCCC2,"SCN2A (Homo sapiens, UniProt Q99250)","sodium current, whole-cell voltage clamp",HEK cells,20 µM,,fast inactivation time constant,1.4 ± 0.3 ms
CN1CCN(c2cc(-c3ccncc3)c(-c3ccc4ccccc4c3)nn2)CC1,"PTH1R (Homo sapiens, UniProt Q03431)","agonist, FLIPR",,12.5 µM,,activation,-6.2%
O=C(CN1C(=O)S/C(=C\c2cccc(Br)c2)C1=O)c1ccc([N+](=O)[O-])cc1,AKR1B1,"enzyme activity, inhibitor",,,,Hill slope,-0.586
C[C@]12C[C@H](O)[C@H]3[C@@H](CCC4=CC(=O)CC[C@@]43C)[C@@H]1CC[C@@H]2C(=O)CO,"CYP11B1 (Homo sapiens, UniProt P15538, V320A)",,nanodiscs,"25 °C, fast phase",,koff,2.28 ± 0.3 s⁻¹
O=C(COc1cccc(Cl)c1Cl)Nc1cc(C2CCC2)nn1CC(F)(F)F,Kir3.1/Kir3.4,"activator, thallium flux",HEK293,concentration not given,,activity,inactive
CCCCc1oc2ccc(NS(C)(=O)=O)cc2c1C(=O)c1ccc(OCCCN(CCCC)CCCC)cc1,"Cytochrome P450 2J2 (CYP2J2, Homo sapiens, UniProt P51589)",inactivator,,added: astemizole substrate,,KI,0.04 ± 0.01 µM

# Repeated from above:
SMILES,tested on,assay,test system,setting,how to read,measurement,result
COc1cc(/C=C2\SC(=O)N(Cc3nc4ccccc4s3)C2=O)cc(OC)c1OC,AKR1B1,"enzyme activity, inhibitor",,,,log IC50,2.43 log nM
CCOC(=O)[C@@]12C[C@@H]1[C@@H](n1cnc3c(NCCCCCc4ccccc4)nc(C#Cc4ccc(Cl)s4)nc31)[C@H](O)[C@@H]2O,"SLC6A3 (Homo sapiens, UniProt Q01959)",inhibitor,HEK293,"concentration not given, added: [3H]dopamine 20 nM",,dopamine uptake,no effect
